Published values gathered from unrelated publications.
Parts stem from different laboratories: compare values within a part only. Changes are numbered by the printed parent chain.
UniProt O15294, sequence (whole entry, looked up): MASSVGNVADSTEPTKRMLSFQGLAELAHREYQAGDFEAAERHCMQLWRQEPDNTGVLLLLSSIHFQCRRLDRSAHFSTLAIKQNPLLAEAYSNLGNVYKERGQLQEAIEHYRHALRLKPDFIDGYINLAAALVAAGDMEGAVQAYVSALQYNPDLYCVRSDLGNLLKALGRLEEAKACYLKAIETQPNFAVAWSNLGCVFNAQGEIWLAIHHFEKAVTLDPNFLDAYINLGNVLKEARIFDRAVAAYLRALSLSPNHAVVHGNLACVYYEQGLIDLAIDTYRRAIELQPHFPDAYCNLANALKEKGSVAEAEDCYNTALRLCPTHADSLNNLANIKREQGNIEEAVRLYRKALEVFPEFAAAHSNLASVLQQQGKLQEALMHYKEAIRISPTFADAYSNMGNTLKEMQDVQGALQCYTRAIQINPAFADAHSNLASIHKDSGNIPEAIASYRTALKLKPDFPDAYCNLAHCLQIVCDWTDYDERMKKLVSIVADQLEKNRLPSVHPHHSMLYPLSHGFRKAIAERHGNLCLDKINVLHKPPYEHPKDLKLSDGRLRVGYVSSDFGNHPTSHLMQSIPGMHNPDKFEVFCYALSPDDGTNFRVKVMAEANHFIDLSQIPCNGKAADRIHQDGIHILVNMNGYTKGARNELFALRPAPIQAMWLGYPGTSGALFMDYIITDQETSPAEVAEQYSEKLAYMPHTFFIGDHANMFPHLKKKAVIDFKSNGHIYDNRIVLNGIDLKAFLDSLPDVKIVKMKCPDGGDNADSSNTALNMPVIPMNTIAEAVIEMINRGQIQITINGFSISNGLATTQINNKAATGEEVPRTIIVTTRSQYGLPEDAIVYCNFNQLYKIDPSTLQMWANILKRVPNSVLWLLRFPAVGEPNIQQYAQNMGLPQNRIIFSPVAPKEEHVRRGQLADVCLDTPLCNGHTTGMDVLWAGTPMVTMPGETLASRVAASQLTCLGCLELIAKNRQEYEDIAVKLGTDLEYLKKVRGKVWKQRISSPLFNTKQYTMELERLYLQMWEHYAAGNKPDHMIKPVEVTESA

Set 1 — method: aptamer microarray, sandwich; molecule type: DNA with 2'F-ANA; sample: in vitro; concentration: 200 nM; with: Cy3 exosite-II aptamer, 400 nM; reading: higher = stronger binding; strand: GGTTGGTGTGGTTGG
Target: Prothrombin, mature alpha-thrombin (F2, Homo sapiens, UniProt P00734)
Setting: whole 15-mer aptamer, many near background
Modification | mean fluorescence intensity [a.u.]
2'F-ANA at 3 5 6 7 8 12 13 15 | 192
2'F-ANA at 1 2 4 5 7 8 9 | 63.2
2'F-ANA at 1 2 4 5 11 12 15 | 79.8
2'F-ANA at 3 4 5 6 7 8 9 11 12 15 | 143
2'F-ANA at 5 7 9 11 12 13 | 95.1
2'F-ANA at 3 4 7 10 11 | 319
2'F-ANA at 3 5 7 8 9 12 14 15 | 75
2'F-ANA at 1 3 4 5 6 7 8 11 12 13 14 15 | 49.7

Set 2 — Change: V136S; method: DHFR PCA, deep sequencing; sample: yeast; relative to: wild-type fitted maximum; reading: higher = stronger binding
Target: ABI1, truncated, D143A, DHFR fusion (Arabidopsis thaliana)
Setting: methotrexate growth selection, single substitutions
Starting sequence: PYL1, truncated, DHFR fusion (Arabidopsis thaliana); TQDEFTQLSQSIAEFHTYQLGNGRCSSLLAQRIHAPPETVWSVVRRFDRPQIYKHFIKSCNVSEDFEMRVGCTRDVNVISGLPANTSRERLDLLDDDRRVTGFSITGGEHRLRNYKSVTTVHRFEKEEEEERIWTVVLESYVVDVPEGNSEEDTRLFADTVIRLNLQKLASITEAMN; partner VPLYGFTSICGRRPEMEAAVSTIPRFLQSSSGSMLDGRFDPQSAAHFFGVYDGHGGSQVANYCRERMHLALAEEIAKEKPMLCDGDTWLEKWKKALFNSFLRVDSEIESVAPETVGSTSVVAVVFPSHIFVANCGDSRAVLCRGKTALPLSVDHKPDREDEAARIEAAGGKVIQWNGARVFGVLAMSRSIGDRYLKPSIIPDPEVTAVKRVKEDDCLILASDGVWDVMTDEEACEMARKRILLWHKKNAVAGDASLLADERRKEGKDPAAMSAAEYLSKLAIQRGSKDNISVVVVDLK
setting | relative binding score [%]
with: (+)-ABA 1.4 µM | 3.26
with: (+)-ABA 0.11 µM | 2.41
with: (+)-ABA 0 µM | -4.71
with: (+)-ABA 2500 µM | 83.6
with: (+)-ABA 17 µM | 10.7
with: (+)-ABA 0.032 µM | -1.06

Mixed results
Molecule | tested on | test | system | setting | scale | endpoint | result
PGM1 (Homo sapiens, UniProt P36871) | MAGT1 (Homo sapiens, UniProt Q9H0U3) | cross-linking MS | cell fractions | with: DSSO |  | cross-linked residues | T562 to K50
EEQEHPFTPHYQIII | UDP-N-acetylglucosamine--peptide N-acetylglucosaminyltransferase 110 kDa subunit (OGT, Homo sapiens, UniProt O15294) | binding, phage display NGS | peptide | panning round 2 | relative to: input library | minimum log2 enrichment ratio | 4.35
NAA10 (Homo sapiens, UniProt P41227) | NAA15 (Homo sapiens, UniProt Q9BXJ9) | cross-linking MS |  | hits only |  | interaction screen | cross-linked
SRSF5 (Homo sapiens, UniProt Q13243) | MAGI3 (Homo sapiens, UniProt Q5TCQ9) | cross-linking MS | cell fractions | with: DSSO |  | cross-linked residues | K158 to K1312
EBNA1BP2 (Homo sapiens, UniProt Q99848) | DDX18 (Homo sapiens, UniProt Q9NVP1) | cross-linking MS |  | hits only |  | interaction screen | cross-linked

A few entries again (set 2):
setting | relative binding score [%]
with: (+)-ABA 2500 µM | 83.6
with: (+)-ABA 1.4 µM | 3.26
